Results collected from several papers.
Compare with care: the assays were run in different laboratories. ± marks the error that the study gave.
U2AF2: U2AF2 148-342 (Homo sapiens, UniProt P26368)
Chain of UniProt P26368 (whole entry, looked up): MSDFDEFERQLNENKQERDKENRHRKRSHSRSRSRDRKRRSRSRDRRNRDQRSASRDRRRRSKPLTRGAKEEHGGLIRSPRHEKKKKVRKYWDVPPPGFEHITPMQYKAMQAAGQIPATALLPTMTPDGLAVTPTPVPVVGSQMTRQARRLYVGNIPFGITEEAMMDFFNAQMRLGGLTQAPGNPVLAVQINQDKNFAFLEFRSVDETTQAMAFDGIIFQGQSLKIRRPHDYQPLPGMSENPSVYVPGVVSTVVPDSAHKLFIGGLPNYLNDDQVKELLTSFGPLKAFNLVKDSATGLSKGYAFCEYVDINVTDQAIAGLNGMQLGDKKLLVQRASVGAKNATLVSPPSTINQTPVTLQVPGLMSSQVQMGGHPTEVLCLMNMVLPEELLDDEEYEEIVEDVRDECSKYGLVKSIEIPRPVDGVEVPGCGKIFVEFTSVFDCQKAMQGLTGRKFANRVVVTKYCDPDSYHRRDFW
T1: itself; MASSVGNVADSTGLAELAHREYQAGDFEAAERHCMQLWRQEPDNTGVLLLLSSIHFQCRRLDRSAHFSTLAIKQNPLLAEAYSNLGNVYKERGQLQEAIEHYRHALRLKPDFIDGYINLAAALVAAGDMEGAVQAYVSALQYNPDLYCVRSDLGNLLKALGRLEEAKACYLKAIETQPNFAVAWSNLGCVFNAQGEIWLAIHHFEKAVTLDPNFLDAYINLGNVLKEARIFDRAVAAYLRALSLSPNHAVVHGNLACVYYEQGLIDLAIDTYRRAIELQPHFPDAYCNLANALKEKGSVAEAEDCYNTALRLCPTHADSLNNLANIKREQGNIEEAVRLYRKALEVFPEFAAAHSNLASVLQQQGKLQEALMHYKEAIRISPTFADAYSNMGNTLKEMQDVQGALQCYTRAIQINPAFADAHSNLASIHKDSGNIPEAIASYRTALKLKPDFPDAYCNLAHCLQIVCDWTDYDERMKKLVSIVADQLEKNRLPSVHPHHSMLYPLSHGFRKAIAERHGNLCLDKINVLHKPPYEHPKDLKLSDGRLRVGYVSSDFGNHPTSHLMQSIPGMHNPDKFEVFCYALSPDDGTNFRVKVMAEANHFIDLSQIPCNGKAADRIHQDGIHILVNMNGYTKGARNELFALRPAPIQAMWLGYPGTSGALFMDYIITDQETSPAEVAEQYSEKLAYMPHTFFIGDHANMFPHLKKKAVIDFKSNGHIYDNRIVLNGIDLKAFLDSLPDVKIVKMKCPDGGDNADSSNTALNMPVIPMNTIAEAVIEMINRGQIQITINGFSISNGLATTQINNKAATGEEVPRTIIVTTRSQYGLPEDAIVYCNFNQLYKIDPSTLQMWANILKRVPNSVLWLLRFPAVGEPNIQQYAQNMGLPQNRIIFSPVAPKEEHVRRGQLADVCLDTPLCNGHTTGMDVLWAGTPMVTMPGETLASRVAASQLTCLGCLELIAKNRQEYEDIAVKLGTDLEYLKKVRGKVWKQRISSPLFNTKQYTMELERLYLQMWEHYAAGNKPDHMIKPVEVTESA
B1: S100A9 (Homo sapiens, UniProt P06702); chain MTCKMSQLERNIETIINTFHQYSVKLGHPDTLNQGEFKELVRKDLQNFLKKENKNEKVIEHIMEDLDTNADKQLSFEEFIMLMARLTWASHEKMHEGDEGPGHHHKPGLGEGTP
B2: racE T25N/S192D/E173R (Dictyostelium discoideum, UniProt Q23862); sequence looked up; chain MSEDQGSGATRVKLVVVGDGAVGKNCLLICYAQNDFPVDYVPTVFENYTATRKRGNEDIKVHLWDTAGQEEYDRLRPLSYPGADVVLLCFSTISQSSYEAIRDKWAPEVNHYIPDVPSILVGTKIDLREQQHPDPNSGKFEPITADMGISMQKQIKAKKYLEVSAKTRQGLERVFSAAIEIVLESRGMDKKDQDGSSSASGVPSGDKPTKGKAGKKKSGCIIL
B3: racE T25N/S192D/E180R/R186E (Dictyostelium discoideum, UniProt Q23862); sequence looked up; chain MSEDQGSGATRVKLVVVGDGAVGKNCLLICYAQNDFPVDYVPTVFENYTATRKRGNEDIKVHLWDTAGQEEYDRLRPLSYPGADVVLLCFSTISQSSYEAIRDKWAPEVNHYIPDVPSILVGTKIDLREQQHPDPNSGKFEPITADMGISMQKQIKAKKYLEVSAKTRQGLEEVFSAAIRIVLESEGMDKKDQDGSSSASGVPSGDKPTKGKAGKKKSGCIIL
Chain of UniProt P08588 (whole entry, looked up): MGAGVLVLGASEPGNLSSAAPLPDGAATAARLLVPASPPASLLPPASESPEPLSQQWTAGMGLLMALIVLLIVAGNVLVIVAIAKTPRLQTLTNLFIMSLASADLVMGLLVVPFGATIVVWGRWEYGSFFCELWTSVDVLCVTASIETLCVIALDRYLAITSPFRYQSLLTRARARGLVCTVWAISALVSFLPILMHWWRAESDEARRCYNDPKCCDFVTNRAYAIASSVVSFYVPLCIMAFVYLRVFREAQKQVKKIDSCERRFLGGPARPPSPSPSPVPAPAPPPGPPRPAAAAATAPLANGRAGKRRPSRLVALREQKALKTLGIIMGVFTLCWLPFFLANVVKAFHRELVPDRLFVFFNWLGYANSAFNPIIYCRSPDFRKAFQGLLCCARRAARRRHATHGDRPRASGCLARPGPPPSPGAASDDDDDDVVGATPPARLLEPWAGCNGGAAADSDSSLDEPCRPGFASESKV
Chain of UniProt P0A9A6 (whole entry, looked up): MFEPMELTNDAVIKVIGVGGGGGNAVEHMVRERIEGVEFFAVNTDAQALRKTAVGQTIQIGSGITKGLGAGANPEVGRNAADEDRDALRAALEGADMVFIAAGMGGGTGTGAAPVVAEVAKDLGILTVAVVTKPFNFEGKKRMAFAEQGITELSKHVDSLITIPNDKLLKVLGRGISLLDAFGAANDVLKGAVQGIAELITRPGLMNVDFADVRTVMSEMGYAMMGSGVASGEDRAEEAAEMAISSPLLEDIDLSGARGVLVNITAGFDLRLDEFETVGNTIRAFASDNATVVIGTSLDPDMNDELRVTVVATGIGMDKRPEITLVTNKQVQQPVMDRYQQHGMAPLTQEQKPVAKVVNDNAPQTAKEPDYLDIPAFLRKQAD
Chain of UniProt Q23985 (whole entry, looked up): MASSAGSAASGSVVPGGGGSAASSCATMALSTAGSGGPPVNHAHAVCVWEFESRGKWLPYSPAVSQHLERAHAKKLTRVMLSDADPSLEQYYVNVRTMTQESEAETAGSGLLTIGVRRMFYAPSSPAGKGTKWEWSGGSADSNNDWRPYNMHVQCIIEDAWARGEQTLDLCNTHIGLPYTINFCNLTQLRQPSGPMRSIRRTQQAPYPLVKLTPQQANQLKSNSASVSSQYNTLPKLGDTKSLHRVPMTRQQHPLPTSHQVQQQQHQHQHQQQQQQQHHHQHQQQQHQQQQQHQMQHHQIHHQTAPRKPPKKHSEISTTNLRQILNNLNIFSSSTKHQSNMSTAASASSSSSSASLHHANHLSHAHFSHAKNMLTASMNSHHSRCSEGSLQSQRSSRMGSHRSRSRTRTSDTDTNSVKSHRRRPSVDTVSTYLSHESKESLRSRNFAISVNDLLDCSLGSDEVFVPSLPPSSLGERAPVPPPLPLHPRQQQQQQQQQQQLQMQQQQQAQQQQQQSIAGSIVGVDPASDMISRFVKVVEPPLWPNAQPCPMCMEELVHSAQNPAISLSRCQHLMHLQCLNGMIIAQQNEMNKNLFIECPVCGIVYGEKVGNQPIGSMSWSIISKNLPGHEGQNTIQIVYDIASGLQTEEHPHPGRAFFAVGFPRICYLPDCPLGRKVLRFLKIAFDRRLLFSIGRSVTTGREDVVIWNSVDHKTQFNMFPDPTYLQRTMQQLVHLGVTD
Chain of UniProt P13393 (whole entry, looked up): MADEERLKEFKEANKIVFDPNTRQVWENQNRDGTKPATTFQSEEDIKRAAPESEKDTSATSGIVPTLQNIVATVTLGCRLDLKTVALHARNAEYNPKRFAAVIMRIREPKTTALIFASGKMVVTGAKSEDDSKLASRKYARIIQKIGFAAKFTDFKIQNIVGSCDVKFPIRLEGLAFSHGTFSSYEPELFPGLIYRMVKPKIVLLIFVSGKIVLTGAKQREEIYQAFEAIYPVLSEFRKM

| Molecule | target or system | test | test system | conditions | how to read | measurement | value |
| --- | --- | --- | --- | --- | --- | --- | --- |
| CAMK2D F368A (Homo sapiens) | itself | mass photometry |  | 25 nM | higher = more dimers | dimers | 20% |
| dx (Drosophila melanogaster, UniProt Q23985) | itself | AUC |  |  |  | Kd | 1010 µM |
| B1 (S100A9) | itself | AUC |  |  |  | Kd | 170 ± 30 µM |
| B2 (racE T25N/S192D/E173R) | itself | pull-down |  |  |  | binding | binds |
| PIP5K1B C110S/P163C/C411S, Alexa555 or Alexa647 label (Homo sapiens) | itself | smFRET |  | homodimer, with: PI(4,5)P2 |  | dwell time | 0.14 ± 0.03 s |
| MXAN_1565 GAF-AAA+ domains (Myxococcus xanthus) | itself | cross-linking |  |  |  | subunits per oligomer | 2 |
| ftsZ (Escherichia coli, UniProt P0A9A6) | itself | filament formation, GTPase rate x-intercept |  |  |  | critical concentration | 0.52 µM |
| cyanophycin synthetase 2 | itself | cyanophycin synthesis |  |  | reference: wild type, higher = more active | normalized synthesis activity | 1.03 |
| clcA C85A/H234C/L194A (Escherichia coli) | itself | SEC |  | room temperature |  | dimer decay half-life | 0.4 days |
| CDH3 ectodomain, soluble (Xenopus) | itself | AUC |  | monomer-dimer fit, sedimentation equilibrium |  | Kd | 64 µM |
| human NudC | CYB5R4 knockout human cells | PP4 interaction, 3xFLAG-PP4C IP-MS |  | concentration not given | reference: CYB5R4 KO over parental | log2 fold change | 0.58 |
| FLS2 monomeric (Arabidopsis thaliana, UniProt Q9FL28) | itself | VA-TIRFM, single-particle tracking |  | resting state, in cells |  | association dwell time | 8 s |
| plectin (human) | PP6C (human) | co-immunoprecipitation, IP-MS | CYB5R4 knockout cells | concentration not given | reference: CYB5R4 knockout over parental | log2 fold change | 0.58 |
| OGT (UniProt O15294-3) | T1, itself | TR-FRET |  | with: CoraFluor-labelled OGT 1 nM |  | Kd | 0.039 µM |
| Nur E63A (Streptomyces coelicolor) | itself | fluorescence polarisation |  |  |  | Kd | 15 ± 2 µM |
| clcA fragment C85A/H234C/I422A/L423A/I426A/L430A/L434A (Escherichia coli) | itself | SEC |  | 12 days, 4 °C |  | dimer decay half-life | 26 days |
| OCP fragment R27L (Synechocystis sp. PCC 6803) | itself | SAXS |  |  |  | Kd | < 14 µM |
| ADRB1 (Homo sapiens, UniProt P08588) | itself | BRET |  | with: HA-β1AR competitor, 0.5 µg | higher = weaker self-association | BRET50 | 1.9 GFP/Rluc ratio |
| GTTCCTGAAGGGGGGGCGGGGTGGGTATAAAAGGGTCAAGTCAATCGGTCC (dsDNA; blunt; 5'-amino-C6 primer) | SPT15 full length assumed (Saccharomyces cerevisiae, UniProt P13393) | EMSA | double-stranded DNA, one strand shown |  |  | Kd | 0.17 ± 0.09 µM |
| UAAGUUUUA (ssRNA) | U2AF2 | sequencing of bound RNA | RNA | motif only |  | Kd | 17.8 µM |
| B3 (racE T25N/S192D/E180R/R186E) | itself | pull-down |  |  |  | binding | binds |
| Notch ankyrin domain (Drosophila) | itself | AUC |  |  |  | Kd | 1620 µM |
| AACUUUUUU (ssRNA) | U2AF2 | sequencing of bound RNA | RNA | motif only |  | Kd | 2.45 µM |

Excerpt of the above:
| Molecule | target or system | test | test system | conditions | how to read | measurement | value |
| --- | --- | --- | --- | --- | --- | --- | --- |
| FLS2 monomeric (Arabidopsis thaliana, UniProt Q9FL28) | itself | VA-TIRFM, single-particle tracking |  | resting state, in cells |  | association dwell time | 8 s |
| plectin (human) | PP6C (human) | co-immunoprecipitation, IP-MS | CYB5R4 knockout cells | concentration not given | reference: CYB5R4 knockout over parental | log2 fold change | 0.58 |
